Results of several laboratories.
Each numbered part is a random draw from the data of one study; scales do not carry over between parts.

Sample 1 — technique: RNA Bind-n-Seq; molecule type: RNA; matrix: in vitro; concentration: 200 nM; notes: whole 134-nt RNA, ends assumed; with: 150 mM LiCl; relative to: input library; reading: higher = stronger binding; library: 7-deaza-guanosine replaces G
Target: Fragile X messenger ribonucleoprotein 1, C-terminal low-complexity region (Fmr1, Mus musculus, UniProt P35922)
| Oligonucleotide | log2 enrichment |
| --- | --- |
| GGGAGUUCUACAGUCCGACGAUCUGCUGGAGGCAAAAAAUGCCAGCCUGGCGUCGUCCAACAACGACUUGCAGGUGGCCGAGGAGCAGUACCAGAGGCUUAUGGCCAAGGUAGUGGAAUUCUCGGGUGUCAAGG | -3.47 |
| GGGAGUUCUACAGUCCGACGAUCGUCCUGUGCUACACAUCGUAUGUACCGAAUCGGGGUUUGGGGAAAGGGGAAAAAGGGGAAAGUAUUAUGUUACGCCGUUCGGAUCUGCACUGGAAUUCUCGGGUGUCAAGG | 0.604 |
| GGGAGUUCUACAGUCCGACGAUCAGUCCUGUGCUACACAUCGUAUGUACCGAAUCGGAAAAAGGUUUUUUUGGAAAAAGGAAAGUAUUAUGUUACGCCGUUCGGAUCUGCACUUGGAAUUCUCGGGUGUCAAGG | -3.25 |
| GGGAGUUCUACAGUCCGACGAUCUGACUUUAGGAGAUACCUUAACUCGACGUUCCAUUAGCCAGCAGAAGUCCGGAGUUUCCAUUACCAUUGAUGACCCAGUCCGAACUGCCCUGGAAUUCUCGGGUGUCAAGG | -1.16 |

Sample 2 — technique: protein binding microarray; molecule type: double-stranded DNA, one strand shown; matrix: in vitro; concentration: not given; relative to: not given; reading: higher = stronger binding
Target: Histone acetyltransferase KAT6A, winged helix 1, GST fusion (KAT6A, Homo sapiens, UniProt Q92794, residues 1-85)
Notes: 8-mer, flanks averaged, mean of 2 arrays, mostly near background
Residues (chain): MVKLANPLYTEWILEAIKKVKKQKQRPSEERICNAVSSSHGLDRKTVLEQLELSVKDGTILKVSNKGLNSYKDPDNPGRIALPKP
| Oligonucleotide | E-score |
| --- | --- |
| CTCTTTTA | -0.218 |
| ACTACCAG | -0.131 |
| AGAGCTAC | -0.00201 |
| ACATCTTA | -0.28 |

Sample 3 — technique: protein-binding microarray; molecule type: double-stranded DNA, one strand shown; matrix: in vitro; concentration: not given; reading: higher = stronger binding
Target: Transcription factor Sp1 (SP1, Homo sapiens, UniProt P08047, residues 1-785, full length assumed)
Chain of UniProt P08047 (whole entry, looked up): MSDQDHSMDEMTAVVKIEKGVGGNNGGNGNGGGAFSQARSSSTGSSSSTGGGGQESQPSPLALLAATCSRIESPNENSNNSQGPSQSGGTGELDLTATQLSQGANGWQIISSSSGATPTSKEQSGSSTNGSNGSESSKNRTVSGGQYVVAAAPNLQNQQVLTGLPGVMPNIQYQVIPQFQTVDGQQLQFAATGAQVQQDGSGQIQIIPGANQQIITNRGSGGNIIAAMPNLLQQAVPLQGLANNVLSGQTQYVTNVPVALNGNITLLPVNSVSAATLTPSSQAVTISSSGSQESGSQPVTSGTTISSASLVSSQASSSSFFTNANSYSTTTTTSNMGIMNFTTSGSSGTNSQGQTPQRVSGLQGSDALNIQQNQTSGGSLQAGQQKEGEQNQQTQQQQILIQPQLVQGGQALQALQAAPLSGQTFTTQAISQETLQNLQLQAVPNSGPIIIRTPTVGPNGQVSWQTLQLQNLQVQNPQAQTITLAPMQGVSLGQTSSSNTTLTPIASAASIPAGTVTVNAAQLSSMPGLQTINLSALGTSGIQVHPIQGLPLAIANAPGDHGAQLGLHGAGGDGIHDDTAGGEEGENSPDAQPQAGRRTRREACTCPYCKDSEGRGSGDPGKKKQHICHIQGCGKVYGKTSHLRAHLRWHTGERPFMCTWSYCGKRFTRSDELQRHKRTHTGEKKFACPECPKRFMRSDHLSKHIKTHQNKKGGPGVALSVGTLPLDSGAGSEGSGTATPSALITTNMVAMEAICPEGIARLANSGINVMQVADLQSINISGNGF
Notes: k-mer, scored over probes, only values ≥0.25
| Oligonucleotide | E-score |
| --- | --- |
| ATTACCCA | 0.265 |
| ACTTTATG | 0.253 |
| ATAAGTTA | 0.277 |
| GGGGTATA | 0.295 |

Other studies, line by line
| Substance | target | test | test system | conditions | scale | endpoint | value |
| --- | --- | --- | --- | --- | --- | --- | --- |
| PhoQ, residues 284 288 289 292 302 303 SLSVQF | PhoP, residues 12 14 15 18 19 NNFVT (Escherichia coli, UniProt P23836) | Sort-seq, item: YFP reporter | E. coli | PhoQ-PhoP variant library, with: 10 µM Mg2+ | relative to: high Mg2+ state, higher = stronger signaling | fold induction | 16.7 |

Some of these lines once more (sample 2):
| Oligonucleotide | E-score |
| --- | --- |
| CTCTTTTA | -0.218 |
